Measured values of several laboratories.
Each numbered part is a random draw from the data of one study; scales do not carry over between parts. Changes are numbered by the printed parent chain.

Sample 1 — method: RNA Bind-n-Seq; molecule type: RNA; matrix: in vitro; concentration: 365 nM; baseline: no-protein control; reading: higher = stronger binding
Target: RNA binding protein fox-1 homolog 2, RRM domain, GST-SBP tag (RBFOX2, Homo sapiens, UniProt O43251-10, residues 100-194)
Setting: natural RNA segment, single round, ends assumed
All sequences stand within: GGGAGUUCUACAGUCCGACGAUC … UGGAAUUCUCGGGUGCCAA
Residues (chain): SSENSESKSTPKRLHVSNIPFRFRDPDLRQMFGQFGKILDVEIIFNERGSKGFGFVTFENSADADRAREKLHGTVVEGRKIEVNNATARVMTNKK
Sequence	RBNS enrichment (R)
UAAAACAAUCUAAAACAAUUCCCUUCUUUUUCAUCCCAGACCAAUGGCAUUAUUAGGUCUUAAAGUAGUUACUCCCUUCUCGUGUUUGCUUAAAAUAUGUGAAGUUUUCC	0.964
CAUUAUUACACACAGGAGAGCCAUUAUCAAAUGUUUUACAGAACAGCAGCGUUAGAGAGUGGGUUUGGUGGGUUGUGGAUAACCAAGAUGGCGUGAAGUAAUGGCAGUAG	1.15
UUGGCUUGGUUUGGAUGAUUCUUAAGUUUAUUAGCCUAGUGAUGGCCAAAAAGUACUUGACUUAAGGUUCACUAAUUAGUUACAAAACUGAACAGCCUCGAUUUUUAAGA	0.402
UUUUUAAUGCAGGACACUUUGAGUGUUACAAAAUCUGUAGACCUGGCAGUAGGGUCAUGAUGUUGGGAAGGGUGUAGUGCCCUAGGUUGGUGACAGAAGGGACAGACACU	0.732
AUGUGUACUCAGAAGAUCAAUAAGGUAAUAUUGGAAUUCAUGUGUUUUUUGCAAUUAAGGCAGGCAUUUGCCAAUGUCUUCUUUUAAGCAGUAGUUGGAAACAUCUCAAU	0.275
CGGAAGUGGUUUCAGGCCCUCUAGUUGCCAUGACCAAUUUGUGUGUGUGUUUAAUUUUUGCUUCAAGCUCUGUAGCAGGACCUGCCCCACGCACACCCCUACCCCUCUGU	0.279
CCAGUGAAACUGUGCAGGGAAAUGAAGGUAGAAUUUUGGGAGGUAAUAAUGAUGUGAAACAUAAAGAUUUAAUAAUUACUGUCCAACACAGUGGAGCAGCUUGUCCACAA	2.59
UCCUUGAUUUCUCAGUAGGUGCUAGAAUCCAGUUCACACCCUUCACUGUGCGUGCAGACACACUGACACACUCCGCCACGAGUGCUCCAGAGCCCACGAGGCUUGCAGAU	0.39

Sample 2 — method: RNA Bind-n-Seq; molecule type: RNA; matrix: in vitro; concentration: 200 nM; setting: whole 134-nt RNA, ends assumed; together with: 150 mM LiCl; baseline: input library; reading: higher = stronger binding; each molecule: 7-deaza-guanosine replaces G
Target: Fragile X messenger ribonucleoprotein 1, C-terminal low-complexity region (Fmr1, Mus musculus, UniProt P35922)
All sequences stand within: GGGAGUUCUACAGUCCGACGAUC … UGGAAUUCUCGGGUGUCAAGG
Sequence	log2 enrichment
ACCAUGCAGGUGGGCAUCUUUGGGAAGUGGGGCAAGGGGGGGAUAGGGAGGGGGGUAACACUUUGGGAACAGGUGGUCCCAGGUCGAUUC	1.37
UUAAGACAGUCAUUUUAAAAUGGUGGCUGAAUUUCCCAACCCACCCCCAAACUAAACACUAAGUUUAAUUUUCAGCUCCUCUGUUGGACA	0.763
UAACUUUAGAGGAGGAUCUGAUGGAAAUGGCAGUGGACGUGGAUUUGGGGAUGGCUAUAAUGGGUAUGGAGGAGGACCUGGAGGUGGCAA	0.0789
CACAGACAACACGCACCCACACAGGCACAGAGGGAAGGGGUUGGGAUGGGGACAGGGUGCACAGCAGGGCGGGGUAGGACCCCAGCCCCU	0.683
UGGCCCUGGUGGCAUGCGGGGAGGAAGAGGUGGCCUCAUGGAUCGUGGUGGUCCCGGUGGAAUGUUCAGAGGUGGCCGUGGUGGAGGCAG	-0.281
UGGCCCUGGUGGCAUGCGGGAAGGAAGAGGUGGCCUCAUGGAUCGUGGUGGUCCCGGUGGAAUGUUCAGAGGUGGCCGUGGUGGAGACAG	0.3
ACCAUGCAGGUGGGCAUCUUUGGGAAGUGGGGCAAGGGGGGGAUAGGGAGGGGGGUAACAUUUUGGGAACAGGUGGUCCCAGGUCGUUUC	1.61
GGGCCCUGGUGGCAUGCGGGGAGGAAGAGGUGGCCUCAUGGAUCGUGGUGGUCCCGGUGGAAUGUUCAGAGGUGGCCGUGGUGGAGACAG	0.177

Sample 3 — method: universal PBM; molecule type: double-stranded DNA, one strand shown; matrix: in vitro; concentration: 600 nM; reading: higher = stronger binding
Target: Sal-like protein 4, full length isoform A (SALL4, Homo sapiens, UniProt Q9UJQ4, residues 1-1053)
UniProt Q9UJQ4, sequence (whole entry, looked up): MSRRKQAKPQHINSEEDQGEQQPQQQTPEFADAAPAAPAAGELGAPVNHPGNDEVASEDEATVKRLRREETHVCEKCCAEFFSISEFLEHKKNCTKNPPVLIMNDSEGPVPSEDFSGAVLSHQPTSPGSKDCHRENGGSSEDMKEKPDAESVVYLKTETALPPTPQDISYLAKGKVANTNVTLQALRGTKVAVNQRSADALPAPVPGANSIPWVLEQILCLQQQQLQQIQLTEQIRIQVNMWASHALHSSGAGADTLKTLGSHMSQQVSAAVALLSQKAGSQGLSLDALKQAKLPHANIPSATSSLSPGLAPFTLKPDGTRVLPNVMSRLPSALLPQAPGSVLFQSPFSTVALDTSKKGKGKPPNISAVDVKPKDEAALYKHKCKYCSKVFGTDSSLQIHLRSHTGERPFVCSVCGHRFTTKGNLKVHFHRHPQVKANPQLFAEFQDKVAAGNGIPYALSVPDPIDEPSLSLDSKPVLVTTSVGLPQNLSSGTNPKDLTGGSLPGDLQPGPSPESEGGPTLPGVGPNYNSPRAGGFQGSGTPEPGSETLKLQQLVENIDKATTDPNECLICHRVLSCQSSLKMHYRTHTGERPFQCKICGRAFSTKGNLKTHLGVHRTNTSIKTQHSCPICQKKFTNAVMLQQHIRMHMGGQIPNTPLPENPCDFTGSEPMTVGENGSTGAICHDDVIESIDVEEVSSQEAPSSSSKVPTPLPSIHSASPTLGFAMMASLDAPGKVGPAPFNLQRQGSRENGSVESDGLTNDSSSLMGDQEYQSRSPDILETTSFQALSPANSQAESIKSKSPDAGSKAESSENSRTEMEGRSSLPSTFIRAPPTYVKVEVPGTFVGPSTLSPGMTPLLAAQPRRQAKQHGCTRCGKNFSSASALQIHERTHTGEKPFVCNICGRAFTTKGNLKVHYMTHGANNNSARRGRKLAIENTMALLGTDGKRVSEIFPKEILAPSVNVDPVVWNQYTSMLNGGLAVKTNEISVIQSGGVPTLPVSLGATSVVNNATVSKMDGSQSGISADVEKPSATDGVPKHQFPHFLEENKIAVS
Setting: 8-mer, flanks averaged, mean of replicates
Sequence	E-score
AGTGTTTA	0.226
CTACCTTC	0.09
CAGATCAA	-0.14
AGATATCC	0.135
AAATTCAC	0.138
AGGATAAA	0.231
CGGCAGTC	-0.151
CGACGGCC	-0.289
GCGCGGCC	-0.367
AAAGACTC	-0.036
CAGGGACG	-0.179
GCTTCTTA	0.0255
ATAAAAAC	0.32

Sample 4 — target: CCNB3, cyclin fold, Cln2 fusion (human); method: yeast growth competition, sequencing; matrix: yeast; setting: strong parent motif; baseline: not given; reading: higher = stronger binding
Parent: PKN2 docking peptide (human); VSAVRKLDFSDTM
Change	normalised enrichment score
VSAVEKLDFSDTM [R5E]	0.115
VSAVRKYDFSDTM [L7Y]	0.0449
VCAVRKLDFSDTM [S2C]	1.69
VSADRKLDFSDTM [V4D]	-0.0285
VSAVRKLDFSCTM [D11C]	2.1
VSAVRKLDFSDSM [T12S]	1.62
VSAVRKLDFSDWM [T12W]	1.39
VSAVRKLDQSDTM [F9Q]	-0.262
VSAVRKLDFEDTM [S10E]	1.14
VSRVRKLDFSDTM [A3R]	0.193
VSAVRKLDFPDTM [S10P]	1.18
VSDVRKLDFSDTM [A3D]	-0.169
VSAVRDLDFSDTM [K6D]	-0.0166
VSAVRELDFSDTM [K6E]	0.126
VSAVRWLDFSDTM [K6W]	0.659
VSAVRKFDFSDTM [L7F]	-0.0984
VSAARKLDFSDTM [V4A]	1.21
VSAVRKVDFSDTM [L7V]	-0.315
VSAVRNLDFSDTM [K6N]	0.243
VSAVRKLDFMDTM [S10M]	0.885
VSEVRKLDFSDTM [A3E]	0.353
VSALRKLDFSDTM [V4L]	0.607
VSAVRKTDFSDTM [L7T]	0.00976
VSAVRKLDFSDEM [T12E]	1.28
VSAVRKLLFSDTM [D8L]	0.859

Repeated from above (sample 2):
Sequence	log2 enrichment
ACCAUGCAGGUGGGCAUCUUUGGGAAGUGGGGCAAGGGGGGGAUAGGGAGGGGGGUAACACUUUGGGAACAGGUGGUCCCAGGUCGAUUC	1.37
UUAAGACAGUCAUUUUAAAAUGGUGGCUGAAUUUCCCAACCCACCCCCAAACUAAACACUAAGUUUAAUUUUCAGCUCCUCUGUUGGACA	0.763
UAACUUUAGAGGAGGAUCUGAUGGAAAUGGCAGUGGACGUGGAUUUGGGGAUGGCUAUAAUGGGUAUGGAGGAGGACCUGGAGGUGGCAA	0.0789
CACAGACAACACGCACCCACACAGGCACAGAGGGAAGGGGUUGGGAUGGGGACAGGGUGCACAGCAGGGCGGGGUAGGACCCCAGCCCCU	0.683
UGGCCCUGGUGGCAUGCGGGGAGGAAGAGGUGGCCUCAUGGAUCGUGGUGGUCCCGGUGGAAUGUUCAGAGGUGGCCGUGGUGGAGGCAG	-0.281
UGGCCCUGGUGGCAUGCGGGAAGGAAGAGGUGGCCUCAUGGAUCGUGGUGGUCCCGGUGGAAUGUUCAGAGGUGGCCGUGGUGGAGACAG	0.3
ACCAUGCAGGUGGGCAUCUUUGGGAAGUGGGGCAAGGGGGGGAUAGGGAGGGGGGUAACAUUUUGGGAACAGGUGGUCCCAGGUCGUUUC	1.61
GGGCCCUGGUGGCAUGCGGGGAGGAAGAGGUGGCCUCAUGGAUCGUGGUGGUCCCGGUGGAAUGUUCAGAGGUGGCCGUGGUGGAGACAG	0.177
